Measurements from different studies.
Each numbered part is a random draw from the data of one study; scales do not carry over between parts. Positions count from the first letter of the parent shown.

Study 1
Molecule: B1 (Ltn1 RING domain)
Method: yeast two-hybrid
Medium: yeast
Notes: mostly zero background
Reference: not given
Reading: higher = stronger interaction
B1: Ltn1 RING domain (UniProt Q6A009); chain VDKRFEGVEDCMICFSVIHGFNYSLPKKACRTCKKKFHSACLYKWFTSSNKSTCPLCRETFF
UBE2J2 UBC core domain (UniProt Q8N2K1) — “lacZ reporter activity”: 0.
For UBE2T UBC core domain (UniProt Q9NPD8): “lacZ reporter activity” read 0.
It gave 0 for “lacZ reporter activity” (UBE2Z UBC core domain (UniProt Q9H832)).
For UBE2D1 UBC core domain (UniProt P51668): “lacZ reporter activity” read 0.
It gave 0 for “lacZ reporter activity” (UBE2B UBC core domain (UniProt P63146)).
For UBE2M UBC core domain (UniProt P61081): “lacZ reporter activity” read 0.
It gave 0 for “lacZ reporter activity” (UBE2J1 UBC core domain (UniProt Q9Y385)).
UBE2O UBC core domain (UniProt Q9C0C9) — “lacZ reporter activity”: 0.
For UBE2S UBC core domain (UniProt Q16763): “lacZ reporter activity” read 0.
For UBE2E3 UBC core domain (UniProt Q969T4): “lacZ reporter activity” read 0.
UBE2I UBC core domain (UniProt P63279) — “lacZ reporter activity”: 0.
It gave 0 for “lacZ reporter activity” (UBE2C UBC core domain (UniProt O00762)).
It gave 0 for “lacZ reporter activity” (UBE2R2 UBC core domain (UniProt Q712K3)).
It gave 0 for “lacZ reporter activity” (UBE2Q1 UBC core domain (UniProt Q7Z7E8)).

Study 2
Target: CCND1, cyclin fold, Cln2 fusion (human)
Method: yeast growth competition, sequencing
Medium: yeast
Notes: strong parent motif
Reference: not given
Reading: higher = stronger binding
Parent: RBL1 docking peptide (human); GSAKRRLFGEDPP; partner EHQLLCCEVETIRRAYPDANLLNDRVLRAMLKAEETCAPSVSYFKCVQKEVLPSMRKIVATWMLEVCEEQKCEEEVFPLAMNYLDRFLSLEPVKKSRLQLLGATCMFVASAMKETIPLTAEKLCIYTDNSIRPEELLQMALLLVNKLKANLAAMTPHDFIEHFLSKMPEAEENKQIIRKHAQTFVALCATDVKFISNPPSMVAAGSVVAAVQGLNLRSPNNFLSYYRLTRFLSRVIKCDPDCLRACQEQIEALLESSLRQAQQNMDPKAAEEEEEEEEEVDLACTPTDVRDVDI
`GSDKRRLFGEDPP [A3D]` — result for “normalised enrichment score”: 0.229.
Under “normalised enrichment score”, `GSAKCRLFGEDPP [R5C]` is recorded as 0.648.
`GSAKRRTFGEDPP [L7T]`: “normalised enrichment score” -0.321.
`GSAKRRLFGEDPH [P13H]`: “normalised enrichment score” 2.12.
`GSAKRRLFGPDPP [E10P]` — result for “normalised enrichment score”: 1.4.
`GSAKRRLFCEDPP [G9C]`: “normalised enrichment score” 3.5.
`GSAKRRLFGEMPP [D11M]`: “normalised enrichment score” 0.494.
`GSIKRRLFGEDPP [A3I]` — result for “normalised enrichment score”: -0.0401.
For `GSMKRRLFGEDPP [A3M]`, “normalised enrichment score” read -0.333.
For `GSAKRRLDGEDPP [F8D]`, “normalised enrichment score” read 0.911.
`GSAKRRLFGEDPS [P13S]` — result for “normalised enrichment score”: 1.38.
`GSAKKRLFGEDPP [R5K]`: “normalised enrichment score” 0.4.
`GKAKRRLFGEDPP [S2K]` — result for “normalised enrichment score”: 1.23.
`GSAKRRLFGEYPP [D11Y]`: “normalised enrichment score” 1.59.
`GSAKRRLFGEDWP [P12W]`: “normalised enrichment score” 1.49.
`GSAKRRLFGEDVP [P12V]` — result for “normalised enrichment score”: 1.48.
`GSCKRRLFGEDPP [A3C]` — result for “normalised enrichment score”: 1.37.
`GSAKRRLFGFDPP [E10F]` — result for “normalised enrichment score”: 0.825.
For `GSAKRRLFGEDPE [P13E]`, “normalised enrichment score” read 2.51.
`GSAKRRLFGEDPW [P13W]`: “normalised enrichment score” 1.76.
`GSAKRQLFGEDPP [R6Q]`: “normalised enrichment score” 1.82.
Under “normalised enrichment score”, `VSAKRRLFGEDPP [G1V]` is recorded as 1.89.
`GSAKVRLFGEDPP [R5V]`: “normalised enrichment score” 0.879.
Under “normalised enrichment score”, `GSAKRCLFGEDPP [R6C]` is recorded as 1.23.
`GSAHRRLFGEDPP [K4H]` — result for “normalised enrichment score”: 0.291.

Study 3
Target: ABI1, truncated, D143A, DHFR fusion (Arabidopsis thaliana)
Method: DHFR PCA, deep sequencing
Medium: yeast
Notes: methotrexate growth selection, single substitutions
With: (+)-ABA 4.8 µM
Reference: wild-type fitted maximum
Reading: higher = stronger binding
Parent: PYL1, truncated, DHFR fusion (Arabidopsis thaliana); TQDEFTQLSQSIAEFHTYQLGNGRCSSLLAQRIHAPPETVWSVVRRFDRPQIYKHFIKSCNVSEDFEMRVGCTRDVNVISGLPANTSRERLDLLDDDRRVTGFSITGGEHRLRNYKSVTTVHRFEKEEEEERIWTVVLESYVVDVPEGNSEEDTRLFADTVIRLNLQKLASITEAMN; partner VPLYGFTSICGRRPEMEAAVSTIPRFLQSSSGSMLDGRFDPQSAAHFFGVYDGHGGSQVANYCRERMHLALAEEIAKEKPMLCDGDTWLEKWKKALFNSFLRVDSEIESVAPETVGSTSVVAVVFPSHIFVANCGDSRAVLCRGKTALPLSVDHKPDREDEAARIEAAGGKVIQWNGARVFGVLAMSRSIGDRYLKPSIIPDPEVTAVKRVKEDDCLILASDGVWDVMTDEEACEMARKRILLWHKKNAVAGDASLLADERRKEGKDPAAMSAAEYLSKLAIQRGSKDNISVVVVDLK
For `P36A`, “relative binding score” read 59.8%.
`T39C` — result for “relative binding score”: 63%.
`Y53Q`: “relative binding score” -9.02%.
`H16M` — result for “relative binding score”: -6.25%.
`G107N` — result for “relative binding score”: 19.3%.
`V137D` — result for “relative binding score”: 7.43%.
`G108I` — result for “relative binding score”: -5.46%.
Under “relative binding score”, `D75K` is recorded as 70.6%.
For `G23V`, “relative binding score” read 10.3%.
For `V100T`, “relative binding score” read 14%.
`A175P` — result for “relative binding score”: 35%.
`Q10G` — result for “relative binding score”: 78.6%.
For `V43Y`, “relative binding score” read 43.4%.
For `R74C`, “relative binding score” read -17.1%.
For `V70E`, “relative binding score” read 49.5%.
`G21C` — result for “relative binding score”: 64.8%.
For `E4V`, “relative binding score” read 77%.
Under “relative binding score”, `V100F` is recorded as 5.55%.
`V161L` — result for “relative binding score”: 47.6%.
`F157C`: “relative binding score” -4.38%.

Study 4
Target: Interferon regulatory factor 5, full length, phosphomimetic (IRF5, Homo sapiens, UniProt Q13568-2, residues 1-514, S451D/S453D/S456D/S462D)
Method: protein-binding microarray
Molecule type: double-stranded DNA, one strand shown
Medium: in vitro
Concentration: 940 nM top
Notes: 60-bp whole probe
With: salmon DNA 0.4 mg/ml
Reference: random background probes
Reading: higher = stronger binding
Shared flanks, not repeated: GCCTAGCAC … GTCTTGATTCGCTTGACGCTGCTG
`GACGAACTGGACTTTCGGGACGTGCTA` — result for “fitted relative affinity”: 0.612 z-score.
`TTAGAACTGGGGTTTCTATTAGTGCTA` — result for “fitted relative affinity”: 1.23 z-score.
`TTAGGAGTGGACACTGGGTTAGTGCTA` — result for “fitted relative affinity”: -0.319 z-score.
`CTCACTCTAATCTCACTCTGTGTGCTA` — result for “fitted relative affinity”: 1.33 z-score.
For `GACGAAATCGGGACTGGAGACGTGCTA`, “fitted relative affinity” read -0.466 z-score.
`GACGGTTTCCTATTCCTGACGTGCTAG` — result for “fitted relative affinity”: 1.57 z-score.
For `GGCGGACTGGACACTGGGGACGTGCTA`, “fitted relative affinity” read -0.842 z-score.
For `CTCATTCTCTGCTTGCGTCTGTGCTAG`, “fitted relative affinity” read 1.79 z-score.
`GAAGGACTGCTTCTCCTGACGTGCTAG` — result for “fitted relative affinity”: -0.341 z-score.
`TTAGGTCTCGTACTGCTTTAGTGCTAG` — result for “fitted relative affinity”: 0.81 z-score.
For `TCAATTTTTAGGATGGGACTGTGCTAG`, “fitted relative affinity” read -0.102 z-score.
`GACGGTCTCCTTCTCCTAACGTGCTAG` — result for “fitted relative affinity”: 0.663 z-score.
For `CAAAAATGATTGGTTGAACAGTGCTAG`, “fitted relative affinity” read -0.216 z-score.
Under “fitted relative affinity”, `TTAGGTTTCGGTTCCGGCTAGTGCTAG` is recorded as 14.9 z-score.
`TGGTTTTTACTTTCTGAATGGTGCTAG` — result for “fitted relative affinity”: 2.34 z-score.
For `TTAGAACTGCTTCTCCTTTAGTGCTAG`, “fitted relative affinity” read -0.237 z-score.
`TTAGATATCGGGTTTCGCTTAGTGCTA`: “fitted relative affinity” 3.21 z-score.
Under “fitted relative affinity”, `AGCTACTGAGTGGCAACACAGTGCTAG` is recorded as -0.677 z-score.
`GACGGACTGGGGTATCAGGACGTGCTA` — result for “fitted relative affinity”: 0.0859 z-score.
`GACGATATCGGTACTGGAGACGTGCTA` — result for “fitted relative affinity”: 0.201 z-score.
For `TTAGGGTTCCTTCTCCTTTAGTGCTAG`, “fitted relative affinity” read 0.219 z-score.
For `GACGGTTCCATTTTCCTGACGTGCTAG`, “fitted relative affinity” read 0.925 z-score.
`TTAGGACTGCTTACCCTTTAGTGCTAG`: “fitted relative affinity” -0.025 z-score.
`TTAGGTTTGGGTATCGGTTAGTGCTAG` — result for “fitted relative affinity”: 4.3 z-score.
`GAGGGACTGGGGTATCGGGACGTGCTA` — result for “fitted relative affinity”: 0.577 z-score.

Study 5
Target: Sal-like protein 4, full length isoform B (SALL4, Homo sapiens, UniProt Q9UJQ4-2, residues 1-616)
Method: universal PBM
Molecule type: double-stranded DNA, one strand shown
Medium: in vitro
Concentration: not given
Notes: 8-mer, flanks averaged, mean of replicates
Reading: higher = stronger binding
With `ATGTAATG` the E-score was 0.261.
The E-score of `CCGTGCTC` is reported as -0.305.
The E-score of `CAATCTTA` is reported as 0.214.
`CAAGTCGA` has an E-score of 0.00763.
The E-score of `AGTGGTCC` is reported as -0.191.
For `AACAGTAG`, the E-score was 0.0318.
With `CGTAGTGC` the E-score was -0.166.
For `ACGCCACT`, the E-score was -0.187.
`AATGGAAG` gave an E-score of 0.052.
For `ACGCTGTA`, the E-score was -0.00645.
With `TCAGATCA` the E-score was 0.019.
With `GATTGGGA` the E-score was -0.109.
`GACGGTTA` has an E-score of -0.0346.
For `AGGCAGAT`, the E-score was -0.0337.
The E-score of `CACGCAGC` is reported as -0.327.
`ATACTTAA` gave an E-score of 0.333.
With `GGAGTACC` the E-score was -0.218.
With `CCCACCCA` the E-score was -0.114.

Study 6
Target: JUNB, bZIP domain (human)
Method: DHFR protein complementation
Medium: yeast
Notes: single substitutions, most at no-binding floor
Reference: wild-type JUN-FOS pair
Reading: higher = stronger binding
Parent: JUN, bZIP domain (human); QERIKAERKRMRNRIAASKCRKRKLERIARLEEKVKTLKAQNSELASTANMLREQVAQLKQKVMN; partner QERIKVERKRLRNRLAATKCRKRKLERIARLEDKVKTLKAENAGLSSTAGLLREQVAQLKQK
`L31H` gave a binding fitness of -1.54 natural log.
`A46C` has a binding fitness of -1.07 natural log.
`L59C` has a binding fitness of -1.39 natural log.
`N42V` gave a binding fitness of -1.19 natural log.
The binding fitness of `L52Y` is reported as -1.45 natural log.
`E32C` has a binding fitness of -1.29 natural log.
For `A40Y`, the binding fitness was -1.36 natural log.
`A49C` has a binding fitness of -0.161 natural log.
`T48L` gave a binding fitness of -1.05 natural log.
With `R53W` the binding fitness was -1.46 natural log.
For `L52H`, the binding fitness was -1.51 natural log.
For `A40V`, the binding fitness was -1.22 natural log.
`M51E` has a binding fitness of -1.08 natural log.
The binding fitness of `A46H` is reported as -1.13 natural log.
`V35T` gave a binding fitness of -1.57 natural log.
`V35A` gave a binding fitness of -1.5 natural log.
With `E32R` the binding fitness was -1.22 natural log.

For quick reference, copied from above (study 3):
For `G23V`, “relative binding score” read 10.3%.
For `V100T`, “relative binding score” read 14%.
`A175P` — result for “relative binding score”: 35%.
`Q10G` — result for “relative binding score”: 78.6%.
For `V43Y`, “relative binding score” read 43.4%.
For `R74C`, “relative binding score” read -17.1%.
For `V70E`, “relative binding score” read 49.5%.
